Measured values of several laboratories.
A part holds a random share of what one study measured. Positions count from the first letter of the parent shown.

Set 1 — technique: RNA Bind-n-Seq; molecule type: RNA; medium: in vitro; tested at: 200 nM; setting: whole 134-nt RNA, ends assumed; together with: 150 mM LiCl; relative to: input library; direction: higher = stronger binding; each molecule: 7-deaza-guanosine replaces G
Target: Ras GTPase-activating protein-binding protein 1, full length (G3BP1, Homo sapiens, UniProt Q13283)
Sequence of UniProt Q13283 (whole entry, looked up): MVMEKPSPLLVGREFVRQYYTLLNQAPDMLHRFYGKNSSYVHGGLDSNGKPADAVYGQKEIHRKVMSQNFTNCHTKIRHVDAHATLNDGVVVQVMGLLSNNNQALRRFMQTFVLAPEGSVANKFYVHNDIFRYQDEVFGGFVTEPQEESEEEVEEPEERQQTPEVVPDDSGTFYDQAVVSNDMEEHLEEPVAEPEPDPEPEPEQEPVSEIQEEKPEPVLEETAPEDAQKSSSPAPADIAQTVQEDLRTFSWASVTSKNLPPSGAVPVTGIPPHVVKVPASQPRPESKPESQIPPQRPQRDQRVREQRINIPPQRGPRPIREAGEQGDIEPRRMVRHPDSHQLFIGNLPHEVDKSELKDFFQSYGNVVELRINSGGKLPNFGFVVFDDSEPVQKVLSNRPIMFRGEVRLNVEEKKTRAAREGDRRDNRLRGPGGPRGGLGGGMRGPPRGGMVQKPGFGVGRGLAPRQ
Shared flanks, not repeated: GGGAGUUCUACAGUCCGACGAUC … UGGAAUUCUCGGGUGUCAAGG
Oligonucleotide	log2 enrichment
GCAGGAAGUAAAAACAAAUGGAAACGCUUCGGAUAGUGGCAGGGGUGGGGGUUGCUAAGGAAAGGGUGGGAUGGGAGUGGGUAAAGAGUU	0.16
AAGUCCUGUGCUACACAUCGUAUGUACCGAAUCAAAUUUAAACCCAAACCCCCAAAAAAGUAUUAUGUUACGCCGUUCGGAUCUGCACUU	1.19
UCCCCAGGGCCUGGCCUACUCAAUCUCUCCCACCUCAUCCUCUGGCAUGGACGCAGUCAGGGAGUCUGCUCCAAGCAGACACUGGUGGUC	-0.0614
AGUCCUGUGCUACACAUCGUAUGUACCGAAUCGGGAAAAAGGGAAAAAAAGGGAGGGAAAGUAUUAUGUUACGCCGUUCGGAUCUGCACU	-0.516
CCUCAAGUCCUGUGCUACACAUCGUAUGUACCGAAUCGGCCGGGCCGGCCGGAAAGUAUUAUGUUACGCCGUUCGGAUCUGCACUUCCAG	-0.127
CUGUGCUACACAUCGUAUGUACCGAAUCGGCCCCCCCGGGGCCCCCCCGGGGCCCCCCCGGGAAAGUAUUAUGUUACGCCGUUCGGAUCU	-0.919
UCCUGUGCUACACAUCGUAUGUACCGAAUCAAAUUUUUUUAAAUUUUUAAACCCCCAAAAAAGUAUUAUGUUACGCCGUUCGGAUCUGCA	1.09
CUCAAGUCCUGUGCUACACAUCGUAUGUACCGAAUCGGGAGGGAGGGUUUGGGAAAGUAUUAUGUUACGCCGUUCGGAUCUGCACUUCCA	-0.0696
GCAGGAAGUAAAAACAAAUGGAAAUGCUUCGGAUAGUGGCAGGGGUAGGGGUUGCUAAGGAAAGGGUGGGAUGGGAGUGGGUAAAGAGUU	0.303

Set 2 — target: CCNA2, cyclin fold, Cln2 fusion (human); technique: yeast growth competition, sequencing; medium: yeast; setting: strong parent motif; relative to: not given; direction: higher = stronger binding
Starting sequence: CDC25A docking peptide (human); PPHRRRLLFACSP
Change	normalised enrichment score
P1W	1.98
P2N	2.55
A10I	1.67
R6K	2.24
P13D	4.04
A10F	3.33
F9S	1.32
C11K	1.95
R4F	2.15

Set 3 — technique: protein-binding microarray; molecule type: double-stranded DNA, one strand shown; medium: in vitro; tested at: 940 nM top; setting: 60-bp whole probe; together with: salmon DNA 0.4 mg/ml; relative to: random background probes; direction: higher = stronger binding; shared flanks, not repeated: GCCTAGCAC … GTCTTGATTCGCTTGACGCTGCTG
Target: Interferon regulatory factor 5, full length, phosphomimetic (IRF5, Homo sapiens, UniProt Q13568-2, residues 1-514, S451D/S453D/S456D/S462D)
Oligonucleotide	fitted relative affinity [z-score]
GACGACTTCAGTATCGAGACGTGCTAG	1.9
GTCCCCTGTCGGGAGGTCAGGTGCTAG	-0.47
CTAGGTATCGACTATCGGTTAGTGCTA	5.01
TCACATCTCCAAAGTCAGACTGTGCTA	0.447
AGGATCCAGCCTGCAACCTCGTGCTAG	-0.709

Single results of other studies
Substance	target	assay	system	setting	how to read	endpoint	result
PhoQ, residues 284 288 289 292 302 303 SSLVEF	PhoP, residues 12 14 15 18 19 AQALL (Escherichia coli, UniProt P23836)	Sort-seq, measured: YFP reporter	E. coli	PhoQ-PhoP variant library, together with: 10 µM Mg2+	relative to: high Mg2+ state, higher = stronger signaling	fold induction	14.7

Some of these lines once more (set 2):
Change	normalised enrichment score
F9S	1.32
C11K	1.95
